Results pooled from the literature.
Each numbered part is a random draw from the data of one study; scales do not carry over between parts.

Series 1 — technique: aptamer microarray, sandwich; form: DNA with 2'F-ANA; sample: in vitro; tested at: 200 nM; with: Cy3 exosite-II aptamer, 400 nM; reading: higher = stronger binding; strand: GGTTGGTGTGGTTGG
Target: Prothrombin, mature alpha-thrombin (F2, Homo sapiens, UniProt P00734)
Notes: whole 15-mer aptamer, many near background
Modification | mean fluorescence intensity [a.u.]
2'F-ANA at 1 4 6 7 15 | 134
2'F-ANA at 4 9 10 11 12 | 129
2'F-ANA at 4 6 8 10 14 | 54.9
2'F-ANA at 4 5 6 10 11 14 | 45
2'F-ANA at 3 4 5 7 8 9 10 11 13 14 | 56.6
2'F-ANA at 1 4 8 9 | 155
2'F-ANA at 3 4 10 11 14 | 220
2'F-ANA at 1 2 4 5 7 9 12 15 | 94.7
2'F-ANA at 3 5 7 9 11 13 15 | 126
2'F-ANA at 2 3 7 10 11 15 | 372
2'F-ANA at 1 3 4 8 12 15 | 534
2'F-ANA at 2 4 5 8 10 11 14 15 | 53.3
2'F-ANA at 2 3 4 8 9 10 12 13 14 | 171
2'F-ANA at 1 4 8 10 11 14 15 | 46.2
2'F-ANA at 1 2 4 11 12 13 15 | 178
2'F-ANA at 2 4 5 8 12 15 | 166
2'F-ANA at 1 2 4 5 6 7 8 9 10 11 15 | 53.5
2'F-ANA at 2 5 6 10 12 13 15 | 49.1
2'F-ANA at 1 2 7 9 11 12 14 15 | 861
2'F-ANA at 7 9 12 14 | 239
2'F-ANA at 3 6 7 8 10 11 13 | 496
2'F-ANA at 4 7 8 9 10 12 15 | 126
2'F-ANA at 1 3 4 5 6 8 9 11 14 | 47.5
2'F-ANA at 1 3 6 7 8 10 12 13 15 | 110
2'F-ANA at 3 4 6 7 11 13 15 | 427

Series 2 — technique: RNA Bind-n-Seq; form: RNA; sample: in vitro; tested at: 365 nM; relative to: no-protein control; reading: higher = stronger binding
Target: RNA binding protein fox-1 homolog 2, RRM domain, GST-SBP tag (RBFOX2, Homo sapiens, UniProt O43251-10, residues 100-194)
Notes: natural RNA segment, single round, ends assumed
Target sequence (chain): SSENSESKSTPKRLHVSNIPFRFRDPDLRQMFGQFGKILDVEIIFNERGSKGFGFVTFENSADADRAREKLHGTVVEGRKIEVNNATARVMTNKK
Strand | RBNS enrichment (R)
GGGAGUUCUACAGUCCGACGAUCUGGGAAUAAACAGCUGCCCUAGCCCCAGAGGGAUCCCUGCACCCAGGAGGCCUCCUGACACCAGCCAAAAUCCUGACAGCAGGGUCUGCCCUCUUGAGUGUGGGGAGCCCUGGAAUUCUCGGGUGCCAA | 0.306
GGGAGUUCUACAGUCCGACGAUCUAUAUAUGUAUAUAAAAUAUAUAUUGCAUAGGACAGACUUAGGAGUUUUGUUUAGAGCAGUUAACAUCUGAAGUGUCUAAUGCAUUAACUUUUGUAAGGUACUGAAUACUUGGAAUUCUCGGGUGCCAA | 0.398
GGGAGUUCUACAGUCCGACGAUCUGGGGGGCUUGGGAGUGUUUGUCAUGUGUCCUCAGUCCCAUGGAUUUGAAAUGACCCCUCCUCGCUGUGAGAGUCCAGAGUCUCCUGAAGUUUGUCAAUGACUGAAAUGCUGGAAUUCUCGGGUGCCAA | 1.49
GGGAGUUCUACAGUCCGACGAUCCAUAAACAGCACUUUCAGGCUACAUUUUAAAGUUCUAACGGAAAACUACAUUUGUCUAAGAUAUCUCUGCUAUUGACACAUGAUGCCUUUGAAUGUCAUAGAGCAUAUUUUGGAAUUCUCGGGUGCCAA | 1.15
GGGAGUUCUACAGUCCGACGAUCAAAGGGCCUGAGGCCUUAGGCUCCUUUAAGGUCUCUGUCUCAGGCAUGGUGCUCAAUAUCUUGGCCAAAUAAGUUACUUCCCUUGAAUAUCCAGGAAUUUUAAACUAAAGUGGAAUUCUCGGGUGCCAA | 0.342
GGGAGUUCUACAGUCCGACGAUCUUGCCAACAGUCUCUAUGCUUAUUUACAUCUUCUACUGUUCAAACUAAGAGAUUUUUAAAUUCUGAAAAACUGCUUACAAUUCAUGUUUUCUAGCCACUCCACAAACCACUGGAAUUCUCGGGUGCCAA | 0.468
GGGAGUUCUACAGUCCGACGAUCUGUUACUCACACUUAUGUCUUACUGGGUUGCUGGUUUUCAUCGUAACACAGAACGAGGUUAUCUAGGGUUGUAGCUUUUGAUACAACUCCCCGAUCUAGAUUUAUUCCUAUGGAAUUCUCGGGUGCCAA | 0.402
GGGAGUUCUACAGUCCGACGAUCUGUGCACUUUGUGUUAAUCUCACCAAAAAUCAUCAUAGGAAAGGAUUAUGGUUUUUAGUUAUGACAUCACAAUGUGUCAAGAGUGGAACAAUAAACGUUUCCCUUGUGUUUGGAAUUCUCGGGUGCCAA | 0.219
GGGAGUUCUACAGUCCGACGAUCCUCCACCAACCCAUCAGAAGGAGAAGGAAGGAGACUCACCUCUGCCUCAAUGUGAAUCAGACCCUACCCCACCACGAUGUGGCCCUGGCCUGCUGGGCUCUCCACCUCAGUGGAAUUCUCGGGUGCCAA | 0.32
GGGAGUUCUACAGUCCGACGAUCUAAUGACCGUUCUGUGUCCCAUGUAUGUCUCUGACCAUCCACAGCCGCCCCUCCUCCAUACCCCAGGGAUAAUUUUUCCUUCAAACCUUCCCUUUCCAAGGGACACUGGGUGGAAUUCUCGGGUGCCAA | 0.555
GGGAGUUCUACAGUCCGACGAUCGAUAGGGAUGGUAUGAAAUGCUGCUGGUGGGCUGGUAAAUCCAAAGGGAUAAGGCUUCAGUGCUGUUGGGAGCCCUCUGGCUCCAAAUGUCUGACUAUCUUGAGGGAGAAUGGAAUUCUCGGGUGCCAA | 0.592
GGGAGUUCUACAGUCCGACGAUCGAUUCUAUCCAGCAAGGUCCUGUUUCCAAGAGUAGCCUAUGGAAUCUGAUCAGUUACUUUAAAAAAUGACUUCUUAUUUUUUAAAUGUUUCCACAUUUUUUGCUUGUGGAUGGAAUUCUCGGGUGCCAA | 0.525

Series 3 — technique: protein binding microarray; form: double-stranded DNA, one strand shown; sample: in vitro; tested at: not given; relative to: not given; reading: higher = stronger binding
Target: Histone acetyltransferase KAT6A, winged helix 1, GST fusion (KAT6A, Homo sapiens, UniProt Q92794, residues 1-85)
Notes: 8-mer, flanks averaged, mean of 2 arrays, mostly near background
Construct (chain): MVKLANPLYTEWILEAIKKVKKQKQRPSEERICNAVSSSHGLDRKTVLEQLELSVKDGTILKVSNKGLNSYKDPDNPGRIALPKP
Strand | E-score
AGGAGGAA | -0.142
CGGCGTAC | 0.39
GCTGGCGA | 0.0134
ATTGTGGA | -0.367
ATGTTCCG | 0.152
GACGCATC | 0.176
ATGGGCTG | -0.12
ACTCTGTC | -0.135
AGGGGCCA | -0.15
AATCCGAA | -0.0035
ATCTGAGC | 0.0311
GACGTTTA | -0.0371
ATAAAACC | -0.0618
ACTCCGCA | -0.0613
ATATAACC | -0.123
ATGCAAGG | 0.00263
AAGAATTC | -0.0618
AATATATG | 0.0227
GCCGTCGC | 0.464
ATCGGTCG | 0.137
CCACAATC | -0.121
GAAAGCAA | -0.107
CATTCGGG | 0.12
ACAATGCA | -0.171
TCATAGCA | -0.25

Series 4 — technique: RNA Bind-n-Seq; form: RNA; sample: in vitro; tested at: 100 nM; relative to: input RNA pool; reading: higher = stronger binding
Target: RING finger protein unkempt homolog, zinc fingers 1-6, SBP tag (UNK, Homo sapiens, UniProt Q9C0B0, residues 30-357)
Chain of UniProt Q9C0B0 (30-357, looked up): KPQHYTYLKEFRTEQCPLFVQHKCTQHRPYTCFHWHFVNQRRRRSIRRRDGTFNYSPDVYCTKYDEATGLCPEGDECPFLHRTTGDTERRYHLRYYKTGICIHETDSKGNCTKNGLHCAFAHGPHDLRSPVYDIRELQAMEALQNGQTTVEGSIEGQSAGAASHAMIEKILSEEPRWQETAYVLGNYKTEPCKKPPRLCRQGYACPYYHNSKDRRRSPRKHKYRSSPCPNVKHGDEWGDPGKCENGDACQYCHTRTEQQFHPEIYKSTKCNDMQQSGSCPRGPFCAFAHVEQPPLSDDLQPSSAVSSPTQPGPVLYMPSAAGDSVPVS
Notes: RNA with constant flanks, vertebrate orthologous sites, ends assumed
Strand | bound/input enrichment
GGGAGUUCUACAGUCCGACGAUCAAUCUCAUGUAGUUUGUUUUUAAUUUCAAGCAAAUUGUACUUGAAUGUGUCCCAUUUUGUUAGCACACCUAGACUUGCUGUAACUGUACUCAUGUCCCAGUAUGUACGUUCUUUCUAUGACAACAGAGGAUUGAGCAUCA | 0.78 ratio
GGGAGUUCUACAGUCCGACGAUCAUCUCGUGCCUCUCCCCACGGGGGGUGGGGGACGCUGAAUGACCCUCAGCUGUUCCAAUCCAGUGGGUUUUUUUGAUUUGUUUGUUUUUGUUUUUUUUUUUUUAUUAAAGAAAUUACUGUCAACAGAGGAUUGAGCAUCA | 0.484 ratio
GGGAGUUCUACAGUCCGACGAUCCUUUAUGGGCCUCGAAGAGUUGAAAUAAUGGAAGAAGAAAGUGAACAGUAAUCUUCAAUUUAGUAUUUAUGCAGAGGUGUGAAAUAAAUGUUUUUUUGUUGUUAUUGUUAUAAUCUUGAGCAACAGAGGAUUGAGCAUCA | 0.745 ratio
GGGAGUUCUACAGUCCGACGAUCCAGCUAACUCGCUGAUUGGCCGGGCCGCCCACAUCGCUGUCCUCGACUCUGAGAUCUUCCUGGAGAAGUUCUUCCUCGUCGCAGGCCUCAGGUUCUUUCAGUAGAACAACGGCAGAAAUGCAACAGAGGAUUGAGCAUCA | 0.456 ratio
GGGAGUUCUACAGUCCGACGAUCCAGCAGAUUCUCUCAUAGGGAGAGCUGCACAUAUUGCUGUUCUUGAUUCAGAAAUAUUUUUAGAAAAAUUCUUUCUUGUUGCUGCCCUAAAAUAUUUUCAGUAGAGAAAAGCAUUGUCAGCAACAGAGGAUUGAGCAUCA | 0.286 ratio
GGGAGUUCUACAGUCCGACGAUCUGUACAAUAAUGAAAACCUACAGGAAUUUUUUUAUUUUUCAUUUUCCCUUUAGGCAUAUUUAGUGAUAUUUUCCCCAGGCAGAUCAUUCUGAGUGUGCGAGUGUGUGUGCACAUGUUACACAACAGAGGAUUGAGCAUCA | 1.14 ratio
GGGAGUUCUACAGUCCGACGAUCAGGAAAUGCUGGCUGCAAACCCUCAGGAUCGUCCAGAUGCUUUUGAACUAGAACUCAGAUUAGUACAAAUUGCAUUUAAAGAUAGCAGCUGGGAAACGUGACACAUAUUAUUUGCAAAUACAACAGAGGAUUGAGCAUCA | 0.879 ratio
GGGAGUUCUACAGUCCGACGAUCAAGAAAUGCUGGCUGCAAACCCUCAGGAUCGUCCAGAUGCUUUUGAACUAGAACUCAGAUUAGUACAAAUUGCAUUUAAAGAUAGCAGCUGGGAAACGUGACACAUGCAUUGUUUGCAAACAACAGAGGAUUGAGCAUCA | 0.614 ratio
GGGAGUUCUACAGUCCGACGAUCCAACGCCAUGGUGGAAGGCUCCGAGCUCAAAAAGGUUCGAUCCAACUCCAGGGUGUAUCACCGAUACUUCCUUUUGGAUGCCGAUAUGCAGUCUCUACGAUGGGAGCCUUCGAAAAAGGACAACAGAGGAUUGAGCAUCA | 0.154 ratio
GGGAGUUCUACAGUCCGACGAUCUUCACUACCUGAGUCGGGUGGAGGUGACAGAGUUCGAAGACAUCAAGUCGGGCUACAGAAUAGAUUUUUACAGUCAUCCUUCUCGAUAUUCCUCAUACCCGCUACCUACCCUCUUCCCUACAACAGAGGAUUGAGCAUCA | 0.328 ratio
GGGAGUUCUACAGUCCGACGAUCCCCUCUGAACCCCAUAUCUUCCGUCUCAUAGUGCAGAAGUAGUCUUUUCAAUUAUAUUACUAGUGGACUUGUUUUAAUUUUAGGGAAACUUUCAGUACAGAUACUGUGAGCUUACAUGGACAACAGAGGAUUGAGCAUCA | 2.38 ratio

Series 5 — technique: RNAcompete; form: RNA; sample: in vitro; tested at: 20 nM; notes: 7-mer, probes averaged, single round; relative to: mean of 7-mers; reading: higher = stronger binding
Target: PABPC1L2, full length, GST fusion (mouse, UniProt A0ABA7IW68)
Construct (chain): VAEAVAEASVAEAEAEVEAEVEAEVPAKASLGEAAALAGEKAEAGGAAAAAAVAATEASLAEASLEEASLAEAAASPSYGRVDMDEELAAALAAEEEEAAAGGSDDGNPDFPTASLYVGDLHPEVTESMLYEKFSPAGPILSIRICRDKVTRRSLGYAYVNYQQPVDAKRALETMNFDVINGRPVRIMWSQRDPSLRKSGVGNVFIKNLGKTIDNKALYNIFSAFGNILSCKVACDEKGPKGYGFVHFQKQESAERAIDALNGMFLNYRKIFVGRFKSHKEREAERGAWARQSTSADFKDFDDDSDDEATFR
Strand | 7-mer Z-score
UCUCGAG | -0.309
GCGUAGC | -0.179
UCUGCAC | -0.11
GUUAUGU | -0.309
UGAAUAA | 0.461
AGCCGCG | -0.311
CAUUAAA | 0.968
AACCCAG | 0.0189
AAGACGA | 0.677
CGCGACA | -0.0409
UAAACAA | 3.34
AGAUCAC | -0.251
UUGAGAG | -0.0355
UCCCACG | -0.219
UGGCCGC | -0.204
AAACCGA | 0.448
UAUUAUG | -0.0536
GUGAACU | -0.197
GUCUCUU | -0.418
UAUGGAC | 0.0334
AAGCUUU | -0.122
ACAACUG | 0.0968
AAUCCAC | 0.0823
AGCGAAA | 0.9

Excerpt of the above (series 3):
Strand | E-score
AATCCGAA | -0.0035
AGGAGGAA | -0.142
ACAATGCA | -0.171
ATGCAAGG | 0.00263
ACTCCGCA | -0.0613
AAGAATTC | -0.0618
ATCGGTCG | 0.137
ATTGTGGA | -0.367
CATTCGGG | 0.12
GAAAGCAA | -0.107
AGGGGCCA | -0.15
ATGGGCTG | -0.12
GCTGGCGA | 0.0134
ATATAACC | -0.123
